Experimental data pooled from the literature.
Each line is one published result; not all experiments were run side by side. Several values in a cell are separate wells, animals, samples, runs or records. Numbers after ± are the reported error.
Cell line: HEK293

| Compound | observed | method | concentration | time | notes | endpoint | value |
| --- | --- | --- | --- | --- | --- | --- | --- |
| CCCC[N+]1=c2cc3c4cc2[O][Mn-2]1(=[C]=O)(=[C]=O)(=[C]=O)[n+]1ccc(cc1)C(=O)OCCOCCOC(=O)c1cc[n+](cc1)[Mn-2](=[C]=O)(=[C]=O)(=[C]=O)([O]3)[N+]=4CCCC | cell growth | MTT | – | 48 h | LED photolysed 1 h | IC50 | 45.2 ± 5.13 µM |
| CC(=O)[C@@H]1CCCN1C(=O)[C@@H]1CCCN1C(=O)[C@H](Cc1ccccc1)NC(=O)OC(C)(C)C | cell growth or viability | SRB | – | – | – | IC50 | 166 µM and 354 µM and 300 µM |
| Cc1ccc(C(C)C)cc1.Cc1ccc(C(C)C)cc1.Cc1ccc(C(C)C)cc1.Cc1ccc(C(C)C)cc1.O=S(=O)(O)C(F)(F)F.O=S(=O)(O)C(F)(F)F.O=S(=O)(O)C(F)(F)F.O=S(=O)(O)C(F)(F)F.c1ccc2c3c4ccccc4c(c2c1)-c1cn(nn1)-c1cc[n+](cc1)[Ru-]1[O]c2cc4c(cc2=[O+]1)[O][Ru-]([O+]=4)[n+]1ccc(cc1)-n1cc(nn1)-c1c2ccccc2c(c2ccccc12)-c1cn(nn1)-c1cc[n+](cc1)[Ru-]1[O]c2cc4c(cc2=[O+]1)[O][Ru-]([O+]=4)[n+]1ccc(cc1)-n1cc-3nn1 | cell growth or viability | MTT | – | 24 h | – | IC50 | > 40 µM |
| CC(C)C[C@H](NC(=O)[C@H](Cc1ccc(O)cc1)NC(=O)[C@@H]1CCCN1C(=O)[C@H](CCCNC(=N)N)NC(=O)[C@@H]1CCCN1C(=O)[C@H](CCCCN)NC(=O)[C@H](CC(=O)O)NC(=O)[C@@H]1CCCN1C(=O)[C@H](CCCNC(=N)N)NC(=O)C1(N)CCCCC1)C(=O)N1CCC[C@H]1C(=O)N[C@@H](CCCNC(=N)N)C(=O)N1CCC[C@H]1C(=O)N[C@@H](CCCNC(=N)N)C(=O)N1CCC[C@H]1C(=O)N1CCC[C@H]1C(=O)N[C@@H](CCCNC(=N)N)C(=O)N1CCC[C@H]1C(=O)N[C@H](C(=O)N[C@@H](CCCNC(=N)N)C(=O)N[C@@H](CSc1c(F)c(F)c(-c2c(F)c(F)c(SC[C@H](NC(=O)[C@H](CCCNC(=N)N)NC(=O)[C@@H](NC(=O)[C@@H]3CCCN3C(=O)[C@H](CCCNC(=N)N)NC(=O)[C@@H]3CCCN3C(=O)[C@@H]3CCCN3C(=O)[C@H](CCCNC(=N)N)NC(=O)[C@@H]3CCCN3C(=O)[C@H](CCCNC(=N)N)NC(=O)[C@@H]3CCCN3C(=O)[C@H](CC(C)C)NC(=O)[C@H](Cc3ccc(O)cc3)NC(=O)[C@@H]3CCCN3C(=O)[C@H](CCCNC(=N)N)NC(=O)[C@@H]3CCCN3C(=O)[C@H](CCCCN)NC(=O)[C@H](CC(=O)O)NC(=O)[C@@H]3CCCN3C(=O)[C@H](CCCNC(=N)N)NC(=O)C3(N)CCCCC3)C(C)C)C(=O)NN)c(F)c2F)c(F)c1F)C(=O)NN)C(C)C | cytotoxicity | – | – | – | highest tested 125 µg/mL | IC50 | > 125 µg/mL |
| CC(C)OC(=O)[C@H](CO)NCc1cc(Cl)c(OCc2cccc(-c3ccccc3)c2Br)cc1OCc1cccnc1 | – | MTT | – | – | – | IC50 | > 10 µM |
| CCCCCCNC(C(=O)N[C@@H]1Cc2c[nH]c3cc(ccc23)-c2cc3cc(c2O)Oc2ccc(cc2)C[C@H]2C(=O)N[C@@H](C(=O)O)c4ccc(O)c(c4)Oc4ccc(cc4)[C@@H](NC(=O)[C@@H]3NC(=O)[C@@H](c3ccc(O)cc3)NC1=O)C(=O)N2C)c1ccc(O)cc1 (stereo partly shown) | cell viability | CellTiter-Glo | – | 48 h | 1% DMSO | IC50 | unstable |
| O=[C]=[Mn-2]12(=[C]=O)(=[C]=O)[O]c3cc4c(cc3=[N+]1CCc1ccccc1)[O][Mn-2](=[C]=O)(=[C]=O)(=[C]=O)([N+]=4CCc1ccccc1)[n+]1ccc(cc1)C(=O)Nc1ccccc1NC(=O)c1cc[n+]2cc1 | – | MTT | 50 µM | 48 h | photolysed compound | viability reduction | 21% |
| CN1C(=O)[C@@H]2NC(=O)[C@@H]3NC(=O)[C@@H](c4ccc(O)cc4)NC(=O)[C@H](NC(=O)C(NCc4cccc(O)c4)c4ccc(O)cc4)Cc4c[nH]c5cc(ccc45)-c4cc3cc(c4O)Oc3ccc(cc3)C[C@H]1C(=O)N[C@@H](C(=O)O)c1ccc(O)c(c1)Oc1ccc2cc1 (stereo partly shown) | cell viability | CellTiter-Glo | – | 48 h | 1% DMSO | IC50 | unstable |
| c1ccc2c(-c3cn(-c4ccncc4)nn3)c3ccccc3c(-c3cn(-c4ccncc4)nn3)c2c1 | cell growth or viability | MTT | – | 24 h | – | IC50 | > 40 µM |
| CCCC[N+]1=c2cc3c4cc2[O][Mn-2]1(=[C]=O)(=[C]=O)(=[C]=O)[n+]1ccc(cc1)C(=O)Oc1ccccc1OC(=O)c1cc[n+](cc1)[Mn-2](=[C]=O)(=[C]=O)(=[C]=O)([O]3)[N+]=4CCCC | – | MTT | 50 µM | 48 h | photolysed compound | viability reduction | 42% |
| CCN(C(=O)c1cc(F)ccc1Oc1nncnc1N1CCC2(C1)CN([C@H](CCCN(C)CCOC)C(C)C)C2)C(C)C | cell growth or viability | – | – | 72 h | – | GI50 | > 10 µM |
| CC(=O)OC[C@H]1O[C@@H](n2cc(CSc3nc4ccccc4n3Cc3cn([C@@H]4O[C@H](COC(C)=O)[C@@H](OC(C)=O)C(OC(C)=O)[C@H]4OC(C)=O)nn3)nn2)[C@H](OC(C)=O)C(OC(C)=O)[C@@H]1OC(C)=O (stereo in doubt) | – | MTT | 500 ppm | – | – | cytotoxicity | 90.9% |
| O=[C]=[Mn-2]12(=[C]=O)(=[C]=O)[O]c3cc4c(cc3=[N+]1CCc1ccccc1)[O][Mn-2](=[C]=O)(=[C]=O)(=[C]=O)([N+]=4CCc1ccccc1)[n+]1ccc(cc1)C(=O)Oc1ccccc1OC(=O)c1cc[n+]2cc1 | – | MTT | 50 µM | 48 h | photolysed compound | viability reduction | 45% |
| CC(C)C[C@H](NC(=O)[C@H](Cc1ccc(O)cc1)NC(=O)[C@@H]1CCCN1C(=O)[C@H](CCCNC(=N)N)NC(=O)[C@@H]1CCCN1C(=O)[C@H](CCCCN)NC(=O)[C@H](CC(=O)O)NC(=O)[C@@H]1CCCN1C(=O)[C@H](CCCNC(=N)N)NC(=O)C1(N)CCCCC1)C(=O)N1CCC[C@H]1C(=O)N[C@@H](CCCNC(=N)N)C(=O)N1CCC[C@H]1C(=O)N[C@@H](CCCNC(=N)N)C(=O)N1CCC[C@H]1C(=O)N1CCC[C@H]1C(=O)N[C@@H](CCCNC(=N)N)C(=O)N1CCC[C@H]1C(=O)N[C@H](C(=O)N[C@@H](CCCNC(=N)N)C(=O)N[C@@H](CSCc1ccc(CSC[C@H](NC(=O)[C@H](CCCNC(=N)N)NC(=O)[C@@H](NC(=O)[C@@H]2CCCN2C(=O)[C@H](CCCNC(=N)N)NC(=O)[C@@H]2CCCN2C(=O)[C@@H]2CCCN2C(=O)[C@H](CCCNC(=N)N)NC(=O)[C@@H]2CCCN2C(=O)[C@H](CCCNC(=N)N)NC(=O)[C@@H]2CCCN2C(=O)[C@H](CC(C)C)NC(=O)[C@H](Cc2ccc(O)cc2)NC(=O)[C@@H]2CCCN2C(=O)[C@H](CCCNC(=N)N)NC(=O)[C@@H]2CCCN2C(=O)[C@H](CCCCN)NC(=O)[C@H](CC(=O)O)NC(=O)[C@@H]2CCCN2C(=O)[C@H](CCCNC(=N)N)NC(=O)C2(N)CCCCC2)C(C)C)C(=O)NN)cc1)C(=O)NN)C(C)C | cytotoxicity | – | – | – | highest tested 125 µg/mL | IC50 | > 125 µg/mL |
| O=[C]=[Mn-2]12(=[C]=O)(=[C]=O)[O]c3cc4c(cc3=[N+]1CCc1ccccc1)[O][Mn-2](=[C]=O)(=[C]=O)(=[C]=O)([N+]=4CCc1ccccc1)[n+]1ccc(cc1)C(=O)OCCOC(=O)c1cc[n+]2cc1 | – | MTT | 50 µM | 48 h | photolysed compound | viability reduction | 35% |
| Cc1ccc(-n2cc(CSc3nc4ccccc4n3Cc3cn(-c4ccc(C)cc4)nn3)nn2)cc1 | – | MTT | 500 ppm | – | – | cytotoxicity | 93% |

Repeated from above:
| Compound | observed | method | concentration | time | notes | endpoint | value |
| --- | --- | --- | --- | --- | --- | --- | --- |
| c1ccc2c(-c3cn(-c4ccncc4)nn3)c3ccccc3c(-c3cn(-c4ccncc4)nn3)c2c1 | cell growth or viability | MTT | – | 24 h | – | IC50 | > 40 µM |
| O=[C]=[Mn-2]12(=[C]=O)(=[C]=O)[O]c3cc4c(cc3=[N+]1CCc1ccccc1)[O][Mn-2](=[C]=O)(=[C]=O)(=[C]=O)([N+]=4CCc1ccccc1)[n+]1ccc(cc1)C(=O)Oc1ccccc1OC(=O)c1cc[n+]2cc1 | – | MTT | 50 µM | 48 h | photolysed compound | viability reduction | 45% |
